Measured values gathered from unrelated publications.
Protocols differ between the studies behind these lines. “And” joins repeats or separate records; there may be more than shown. ± gives the spread as reported.
HTR2B: 5-hydroxytryptamine receptor 2B (HTR2B, Homo sapiens, UniProt P41595)
UniProt P41595, sequence (whole entry, looked up): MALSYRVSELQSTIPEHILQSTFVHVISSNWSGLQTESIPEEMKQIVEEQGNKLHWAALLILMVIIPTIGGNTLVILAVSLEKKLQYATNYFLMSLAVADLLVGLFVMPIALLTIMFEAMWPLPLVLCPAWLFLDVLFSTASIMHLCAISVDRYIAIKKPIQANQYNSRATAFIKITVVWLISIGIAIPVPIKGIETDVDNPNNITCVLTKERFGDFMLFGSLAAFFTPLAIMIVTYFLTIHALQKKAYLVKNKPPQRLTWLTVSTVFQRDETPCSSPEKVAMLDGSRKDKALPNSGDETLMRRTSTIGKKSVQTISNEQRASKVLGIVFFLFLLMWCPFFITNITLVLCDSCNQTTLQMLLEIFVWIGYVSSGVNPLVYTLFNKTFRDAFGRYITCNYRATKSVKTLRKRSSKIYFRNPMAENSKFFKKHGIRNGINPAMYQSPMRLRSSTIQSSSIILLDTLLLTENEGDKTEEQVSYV
T1: ssDNA, aptamer; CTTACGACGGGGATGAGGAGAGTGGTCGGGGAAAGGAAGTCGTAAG
UniProt Q16774, sequence (whole entry, looked up): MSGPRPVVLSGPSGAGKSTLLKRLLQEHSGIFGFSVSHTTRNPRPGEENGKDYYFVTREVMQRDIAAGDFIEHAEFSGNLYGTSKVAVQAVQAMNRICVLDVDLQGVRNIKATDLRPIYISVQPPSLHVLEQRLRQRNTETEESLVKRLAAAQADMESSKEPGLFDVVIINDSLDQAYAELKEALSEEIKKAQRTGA
UniProt P11388, sequence (whole entry, looked up): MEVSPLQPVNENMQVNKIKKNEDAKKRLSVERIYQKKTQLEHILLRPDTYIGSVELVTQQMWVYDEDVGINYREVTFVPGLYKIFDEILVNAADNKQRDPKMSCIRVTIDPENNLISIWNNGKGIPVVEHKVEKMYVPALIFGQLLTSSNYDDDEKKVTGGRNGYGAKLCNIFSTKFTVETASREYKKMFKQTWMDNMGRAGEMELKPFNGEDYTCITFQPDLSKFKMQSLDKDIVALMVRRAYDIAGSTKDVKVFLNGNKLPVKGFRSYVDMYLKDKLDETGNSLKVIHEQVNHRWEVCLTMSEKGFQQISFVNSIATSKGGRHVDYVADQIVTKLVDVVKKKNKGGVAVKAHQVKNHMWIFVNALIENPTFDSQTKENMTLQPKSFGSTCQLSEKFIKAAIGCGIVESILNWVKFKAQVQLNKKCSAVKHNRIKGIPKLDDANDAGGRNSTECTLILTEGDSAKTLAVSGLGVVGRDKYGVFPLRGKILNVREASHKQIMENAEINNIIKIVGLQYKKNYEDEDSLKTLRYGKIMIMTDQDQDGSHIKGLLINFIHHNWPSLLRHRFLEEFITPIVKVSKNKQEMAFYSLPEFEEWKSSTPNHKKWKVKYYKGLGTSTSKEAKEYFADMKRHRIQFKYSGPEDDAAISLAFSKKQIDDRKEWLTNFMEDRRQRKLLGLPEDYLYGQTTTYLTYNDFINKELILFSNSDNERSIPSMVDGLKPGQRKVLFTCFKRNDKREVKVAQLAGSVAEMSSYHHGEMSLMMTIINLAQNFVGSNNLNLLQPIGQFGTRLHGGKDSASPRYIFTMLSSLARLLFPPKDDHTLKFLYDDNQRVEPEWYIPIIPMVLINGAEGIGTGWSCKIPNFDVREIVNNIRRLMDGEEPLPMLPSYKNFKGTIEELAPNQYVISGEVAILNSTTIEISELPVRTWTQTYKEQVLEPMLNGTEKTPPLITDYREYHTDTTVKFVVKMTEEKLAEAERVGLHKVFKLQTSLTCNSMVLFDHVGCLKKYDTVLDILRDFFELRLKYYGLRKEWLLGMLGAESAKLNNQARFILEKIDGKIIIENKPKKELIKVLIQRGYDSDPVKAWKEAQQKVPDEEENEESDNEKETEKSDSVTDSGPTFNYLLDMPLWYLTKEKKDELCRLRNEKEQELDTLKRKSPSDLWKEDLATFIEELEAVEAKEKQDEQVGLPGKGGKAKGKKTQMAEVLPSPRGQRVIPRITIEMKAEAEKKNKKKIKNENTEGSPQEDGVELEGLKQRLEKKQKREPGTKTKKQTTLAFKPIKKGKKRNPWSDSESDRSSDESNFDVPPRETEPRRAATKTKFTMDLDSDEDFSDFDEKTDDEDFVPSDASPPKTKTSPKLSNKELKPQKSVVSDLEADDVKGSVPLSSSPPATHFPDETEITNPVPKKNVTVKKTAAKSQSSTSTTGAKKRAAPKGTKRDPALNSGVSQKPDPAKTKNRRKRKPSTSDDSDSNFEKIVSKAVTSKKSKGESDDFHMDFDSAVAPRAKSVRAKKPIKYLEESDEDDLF
UniProt Q07011, sequence (whole entry, looked up): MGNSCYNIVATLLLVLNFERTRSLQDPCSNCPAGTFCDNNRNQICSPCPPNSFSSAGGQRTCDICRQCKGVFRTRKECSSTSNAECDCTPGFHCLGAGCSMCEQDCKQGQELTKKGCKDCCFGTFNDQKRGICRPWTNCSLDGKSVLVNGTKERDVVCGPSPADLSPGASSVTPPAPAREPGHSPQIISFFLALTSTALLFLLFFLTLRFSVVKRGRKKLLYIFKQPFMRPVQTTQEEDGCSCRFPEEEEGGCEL
UniProt P25440, sequence (whole entry, unmodified, looked up): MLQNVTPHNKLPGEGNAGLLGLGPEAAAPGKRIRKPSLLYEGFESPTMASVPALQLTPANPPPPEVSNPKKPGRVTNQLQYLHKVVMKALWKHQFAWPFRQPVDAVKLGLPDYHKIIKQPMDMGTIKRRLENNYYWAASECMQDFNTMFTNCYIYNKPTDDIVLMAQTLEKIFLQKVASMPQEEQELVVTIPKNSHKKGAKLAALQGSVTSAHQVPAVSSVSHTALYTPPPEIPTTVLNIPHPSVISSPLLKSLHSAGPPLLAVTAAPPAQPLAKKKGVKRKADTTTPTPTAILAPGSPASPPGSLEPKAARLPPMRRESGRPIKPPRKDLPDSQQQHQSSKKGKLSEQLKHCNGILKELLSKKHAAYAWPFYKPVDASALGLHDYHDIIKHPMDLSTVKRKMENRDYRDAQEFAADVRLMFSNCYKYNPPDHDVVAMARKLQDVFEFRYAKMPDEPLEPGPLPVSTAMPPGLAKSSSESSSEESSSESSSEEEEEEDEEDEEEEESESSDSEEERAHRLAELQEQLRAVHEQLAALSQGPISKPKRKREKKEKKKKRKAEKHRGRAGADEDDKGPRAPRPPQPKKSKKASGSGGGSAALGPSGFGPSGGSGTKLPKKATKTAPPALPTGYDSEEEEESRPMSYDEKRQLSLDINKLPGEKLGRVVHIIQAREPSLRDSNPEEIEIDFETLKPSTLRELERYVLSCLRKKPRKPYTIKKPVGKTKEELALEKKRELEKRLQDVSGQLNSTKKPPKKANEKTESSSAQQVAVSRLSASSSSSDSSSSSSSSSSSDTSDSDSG
UniProt P52790, sequence (whole entry, unmodified, looked up): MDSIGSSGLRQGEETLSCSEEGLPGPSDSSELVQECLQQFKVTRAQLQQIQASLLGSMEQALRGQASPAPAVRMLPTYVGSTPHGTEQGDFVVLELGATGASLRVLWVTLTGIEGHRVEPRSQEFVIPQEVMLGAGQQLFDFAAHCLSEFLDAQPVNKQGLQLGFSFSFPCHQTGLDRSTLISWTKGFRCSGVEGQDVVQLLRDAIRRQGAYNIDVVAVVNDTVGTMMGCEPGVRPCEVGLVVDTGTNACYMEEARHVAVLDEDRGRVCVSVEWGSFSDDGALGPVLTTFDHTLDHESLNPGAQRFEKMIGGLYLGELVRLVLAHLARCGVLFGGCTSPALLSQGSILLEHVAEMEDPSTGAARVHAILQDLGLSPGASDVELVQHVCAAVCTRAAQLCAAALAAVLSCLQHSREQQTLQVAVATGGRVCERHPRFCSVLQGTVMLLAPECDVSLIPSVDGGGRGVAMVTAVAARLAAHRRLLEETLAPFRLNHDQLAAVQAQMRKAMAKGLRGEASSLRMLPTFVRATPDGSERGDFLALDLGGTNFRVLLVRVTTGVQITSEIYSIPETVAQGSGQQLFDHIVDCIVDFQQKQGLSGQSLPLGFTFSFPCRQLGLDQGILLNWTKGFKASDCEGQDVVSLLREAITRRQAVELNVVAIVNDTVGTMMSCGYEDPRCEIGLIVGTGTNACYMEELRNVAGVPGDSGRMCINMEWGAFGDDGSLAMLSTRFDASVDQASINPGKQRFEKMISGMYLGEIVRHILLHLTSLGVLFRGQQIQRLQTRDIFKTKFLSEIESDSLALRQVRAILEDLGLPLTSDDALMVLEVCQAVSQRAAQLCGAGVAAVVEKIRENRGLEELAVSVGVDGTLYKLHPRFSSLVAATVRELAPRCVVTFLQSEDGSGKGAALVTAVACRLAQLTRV
UniProt Q92207, sequence (whole entry, looked up): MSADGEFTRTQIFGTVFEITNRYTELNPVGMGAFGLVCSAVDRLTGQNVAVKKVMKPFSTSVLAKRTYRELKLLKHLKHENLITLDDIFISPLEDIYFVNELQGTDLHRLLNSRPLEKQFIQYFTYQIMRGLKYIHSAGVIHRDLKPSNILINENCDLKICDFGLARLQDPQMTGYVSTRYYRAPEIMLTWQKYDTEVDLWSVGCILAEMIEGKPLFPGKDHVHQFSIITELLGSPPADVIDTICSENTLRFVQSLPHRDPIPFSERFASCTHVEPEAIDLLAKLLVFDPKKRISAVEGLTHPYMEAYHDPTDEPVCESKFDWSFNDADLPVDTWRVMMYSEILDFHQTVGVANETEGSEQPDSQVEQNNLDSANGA

SMILES | target | test | system | conditions | how to read | measurement | value
CC(=O)N[C@H](C(=O)N1C[C@H](O)C[C@H]1C(=O)NCc1ccc(-c2scnc2C)cc1)C(C)(C)SCCCCCCNC(=O)C[C@@H]1N=C(c2ccc(Cl)cc2)c2c(sc(C)c2C)-n2c(C)nnc21 | Bromodomain-containing protein 2, BD2 (BRD2, Homo sapiens, UniProt P25440) | binding, ITC | – | 25 °C, compound in cell, protein in syringe | – | −TΔS | -5.98 ± 0.293 kJ/mol
CN1CCC(CNc2ccc3ncc(-c4cccc(OC(F)(F)F)c4)n3n2)CC1 | HTR2B | calcium flux | – | 10 µM | reference: control | response | > 50%
Nc1ccc(S(=O)(=O)Nc2nnc(Cc3ccc(Cl)cc3)s2)cc1 | Glutathione hydrolase 1 proenzyme, without transmembrane domain (Homo sapiens, UniProt P19440) | GSH hydrolysis, uncompetitive inhibitor | – | 37 °C, binds gamma-glutamyl enzyme, added: GSH 5-20 µM | – | Kii | 419 ± 27 µM
CCCC[C@@H]1NC(=O)[C@H](Cc2ccc(O)cc2)NC(=O)[C@@H]2CCCN2C(=O)[C@H](CC(=O)O)NC(=O)[C@H](C)NC(=O)[C@H](Cc2ccccc2)NC(=O)[C@@H]2CSCCC(=O)N3CN(CN(C3)C(=O)CCSC[C@@H](C(=O)N[C@@H](CNC(=O)CCOCCOCCOCCOCCOCCOCCOCCOCCOCCOCCOCCOCCn3cc(CCC(=O)NCCC(=O)N(C)CC(=O)N(C)CC(=O)N(C)CC(=O)N(C)CC(=O)N(C)CC(=O)N(C)CC(=O)N(C)CC(=O)N(C)CC(=O)N(C)CC(=O)N(C)CC(=O)N[C@H]4CSCCC(=O)N5CN6CN(C5)C(=O)CCSC[C@H](NC(=O)[C@@H](CC(=O)O)NC(=O)[C@H](Cc5cccc7ccccc57)NC(=O)[C@@H]5CCCN5C4=O)C(=O)N[C@@H](CCSC)C(=O)N[C@@H](CCCCNC(=N)N)C(=O)N[C@@H](CC(=O)O)C(=O)N[C@@H](Cc4c[nH]c5ccccc45)C(=O)N[C@@H](CO)C(=O)N[C@@H]([C@@H](C)O)C(=O)N4CCC[C@H]4C(=O)N4C[C@H](O)C[C@H]4C(=O)N[C@@H](Cc4c[nH]c5ccccc45)C(=O)N[C@H](C(N)=O)CSCCC6=O)nn3)C(N)=O)NC1=O)C(=O)CCSC[C@H](NC(=O)[C@H](C)NC(C)=O)C(=O)N[C@@H]([C@@H](C)CC)C(=O)N[C@@H](CCC(=O)O)C(=O)N[C@@H](CCC(=O)O)C(=O)NCC(=O)N[C@@H](CCC(N)=O)C(=O)N[C@@H](Cc1ccc(O)cc1)C(=O)N2 | Tumor necrosis factor receptor superfamily member 9/Nectin-4 (Homo sapiens, UniProt Q07011+Q96NY8) | reporter gene, agonist | HT-1376 coculture with reporter cells | – | reference: background | Emax | 25 fold
N#Cc1ccn2c(-c3ccncc3)c(-c3ccc(F)cc3)nc2c1 | Mitogen-activated protein kinase HOG1 (HOG1, Candida albicans, UniProt Q92207) | MIB/MS competition binding | Candida albicans cell lysate | 10 µM | reference: DMSO, lower = stronger binding | log2 fold change | -2.49
[Cl-].[Na+] | GUK1 (Homo sapiens, UniProt Q16774) | enzyme activity, NADH-coupled | – | 150 mM, enzyme 7.5 nM | – | initial reaction velocity | 0.265 µM/s and 0.237 µM/s and 0.266 µM/s
O=C(O)c1ccc(Nc2ncc3c(n2)-c2ccc(Cl)cc2C(c2c(F)cccc2F)=NC3)cc1 | Fer(h) | kinase activity | – | 1 µM | – | remaining activity | 57%
CC[C@@H]1[C@H](F)C(=O)N[C@@H]1COc1nccc2cc(C(N)=O)c(OC)cc12 | Dual specificity protein kinase CLK3 (CLK3, Homo sapiens, UniProt P49761) | ATP probe binding, KiNativ profiling, item: ATP loop probe site | THP-1 cell lysate | 0.01 mM | – | inhibition | 8.2%
OC[C@H]1OC(O)[C@H](O)[C@@H](O)[C@@H]1O (stereo partly drawn) | Hexokinase-3 (HK3, Homo sapiens, UniProt P52790, N221A) | substrate inhibition | – | mutant N221A, partial substrate inhibition model, added: ATP 20 mM | – | kcat | 41 ± 25 s⁻¹
Nc1ncnc2c1ncn2[C@@H]1O[C@H](CO)[C@@H](O)[C@H]1O | T1, ssDNA, aptamer | ITC | – | – | – | Kd | 39.2 µM
O=c1nc(SCc2cc(F)cc(C(F)(F)F)c2)nc(SCc2ccc3sccc3c2)[nH]1 | DNA topoisomerase 2-alpha (TOP2A, Homo sapiens, UniProt P11388) | DNA cleavage | – | 125 µM, replicate 2 | – | linear DNA | 9.32%
COc1cc2c(cc1OC)C(=O)C(CC1CCN(Cc3ccccc3)CC1)C2 (stereo not drawn) | HTR2B | radioligand binding | – | concentration not given, added: [3H]LSD | – | inhibition | 67.6%
